Published values from different studies.
Protocols differ between the studies behind these lines. Numbers after ± are the reported error.

| SMILES | target or system | test | test system | conditions | endpoint | result |
| --- | --- | --- | --- | --- | --- | --- |
| CC[C@H](C)[C@H](NC(=O)[C@H](CC(=O)O)NC(=O)[C@H](CCCCN)NC(=O)[C@H](CC(C)C)NC(=O)[C@H](CC(N)=O)NC(=O)[C@@H](NC(=O)[C@H](Cc1ccc(O)cc1)NC(=O)[C@H](CO)NC(=O)[C@H](CCC(N)=O)NC(=O)[C@H](CCC(=O)O)NC(=O)[C@H](CC(C)C)NC(=O)[C@H](CCCCN)NC(=O)[C@H](CCCCN)NC(=O)[C@@H](NC(=O)[C@H](C)NC(=O)[C@H](CCC(=O)O)NC(=O)[C@H](CCC(=O)O)NC(=O)[C@H](CC(C)C)NC(=O)[C@H](CCCCN)NC(=O)[C@H](CCCCN)NC(=O)[C@H](CCSC)NC(=O)[C@H](CCC(=O)O)NC(=O)[C@H](CC(=O)O)NC(=O)[C@H](CCC(N)=O)NC(=O)[C@H](CC(C)C)NC(=O)[C@H](CC(=O)O)NC(=O)[C@H](CC(C)C)NC(=O)[C@H](Cc1ccccc1)NC(=O)[C@@H](NC(=O)[C@@H](NC(=O)[C@H](CC(N)=O)NC(=O)[C@@H](NC(=O)[C@H](Cc1ccc(O)cc1)NC(=O)[C@H](CC(=O)O)NC(=O)[C@H](CC(C)C)NC(=O)[C@@H](N)CO)[C@@H](C)CC)C(C)C)[C@@H](C)O)[C@@H](C)CC)[C@@H](C)CC)C(=O)O |  |  | water |  | solubility | 9510 ± 272 µM |
| CNC(=O)c1cc(C)ccc1OCCc1ccc(Br)cc1 |  |  | PBS | 30 (unit not given), pH 7.4 | solubility | 25 µM |
| CC(C)N(Cc1ccccc1)C(=O)C(C)(C)C |  |  | PBS | 2 h, pH 7.4, 25 °C | solubility | 324 µM |
| CC(N)C(=O)OC(C)(C)Cc1ccc(Cl)cc1 (centres unmarked) | Plasmodium falciparum |  | 7G8 |  | IC50 | 7.94 µM |
| CS(=O)(=O)NCC1CCOC2(CCN(C(=O)C3(c4ccc(Cl)cc4)CCCC3)CC2)C1 (centres unmarked) |  |  |  | pH 7.4 | solubility | 220 µM |
| CC[C@@H]1NC(=O)[C@H](CC(C)C)NC(=O)CNC(=O)CNC(=O)[C@@H](CC(C)C)NC(=O)[C@@H](Cc2ccc(O)cc2)NC(=O)CSC[C@@H](C(=O)O)NC(=O)[C@H](C(C)C)NC(=O)[C@H](CC(C)C)NC(=O)[C@H](C)NC(=O)[C@H]([C@@H](C)CC)NC1=O |  |  | HBSS | pH 7.4 | solubility | 3.98 µM |
| O=C(NCCCNc1nc(Nc2cccc(NC(=O)N3CCCC3)c2)ncc1I)c1cccs1 |  |  | intestinal pH buffer | 24 h | solubility | < 1 µg/mL |
| O=C1Cc2cc(-c3ccco3)ccc2C(=O)N1O |  |  | aqueous buffer | 2 (unit not given), pH 7.2 | solubility | 162 ± 5.33 µM |
| COc1ccc(C2(C(=O)N3CCC4(CC3)CC(CNS(C)(=O)=O)CCO4)CCCC2)cc1 (centres unmarked) |  |  |  | pH 7.4 | solubility | 210 µM |
| CCOC(=O)N1C[C@@H](c2ccc(C)nc2)N[C@@H](C2CCC2)C1 |  | shake-flask, LC-HRMS | aqueous buffer | 16 h, pH 6.8 | solubility | > 750 µM |
| C#Cc1ccc2c(c1)C(c1ccccn1)=NCc1c(-c3cnco3)ncn1-2 |  |  | chloroform | 24 h, 25 °C, thermodynamic equilibrium | solubility | 4360 µg/mL |
| CN1C(=O)Cc2ccc(F)c(CCNCC[C@H]3CN(c4ccc5c(n4)NC(=O)CO5)C(=O)O3)c21 |  |  | aqueous buffer |  | solubility | 178 µM |
| Cc1ccc(OCCc2cccc(F)c2)c(C(N)=O)c1 |  |  | PBS | 30 (unit not given), pH 7.4 | solubility | 50 µM |
| COc1ccc(-c2oc3cc(OC)cc(OC)c3c(=O)c2OC)cc1 |  | HPLC | ethanol:butylene glycol 0:100 |  | solubility | 5674 ± 41 ppm |
| COc1cc(Nc2ncc(F)c(Nc3ccc4c(n3)NC(=O)C(C)(C)O4)n2)cc(OC)c1OC |  |  | non-kinase assay buffer | 3 h, pH 7.5, 0.1% DMSO | solubility | 8.8 µM |
| CC=CCC(C)C1OC(=O)C(C(C)C)N(C)C(=O)C(CC(C)C)N(C)C(=O)C(CC(C)C)N(C)C(=O)C(C)NC(=O)C(C)NC(=O)C(CC(C)C)N(C)C(=O)C(C(C)C)NC(=O)C(CC(C)C)N(C)C(=O)CN(C)C(=O)C(CC)NC(=O)C1NC (centres unmarked) |  |  | HBSS | 18 h, pH 7.4 | solubility | 91.2 µM |
| CC1(C)C(=O)N(c2ccc(C#N)c(C(F)(F)F)c2)C(=S)N1Cc1ccc(-c2c[nH]nn2)cc1 |  |  | water | 10% DMSO | solubility | 300 µg/mL |
| CC[C@H](C)[C@H](NC(=O)[C@H](CCC(=O)O)NC(=O)[C@H](CCCCN)NC(=O)[C@H](CC(C)C)NC(=O)[C@H](CC(N)=O)NC(=O)[C@@H](NC(=O)[C@H](Cc1ccc(O)cc1)NC(=O)[C@H](CO)NC(=O)[C@H](CCC(=O)O)NC(=O)[C@H](CCC(=O)O)NC(=O)[C@H](CC(C)C)NC(=O)[C@H](CCCCN)NC(=O)[C@H](CCCCN)NC(=O)[C@@H](NC(=O)[C@H](C)NC(=O)[C@H](CCC(=O)O)NC(=O)[C@H](CCC(=O)O)NC(=O)[C@H](CC(C)C)NC(=O)[C@H](CCCCN)NC(=O)[C@H](CCCCN)NC(=O)[C@H](CCSC)NC(=O)[C@H](CCC(=O)O)NC(=O)[C@H](CC(=O)O)NC(=O)[C@H](CCC(=O)O)NC(=O)[C@H](CC(C)C)NC(=O)[C@H](CC(=O)O)NC(=O)[C@H](CC(C)C)NC(=O)[C@H](Cc1ccccc1)NC(=O)[C@@H](NC(=O)[C@@H](NC(=O)[C@H](CC(N)=O)NC(=O)[C@@H](NC(=O)[C@H](Cc1ccc(O)cc1)NC(=O)[C@H](CC(=O)O)NC(=O)[C@H](CC(C)C)NC(=O)[C@@H](N)CO)[C@@H](C)CC)C(C)C)[C@@H](C)O)[C@@H](C)CC)[C@@H](C)CC)C(=O)O |  |  | PBS | pH 7.2 | solubility | 528 ± 19 µM |
| CNC(=O)[C@@H](NC(=O)c1cc(OCC2(C)COC2)c(C2CC2)cn1)C(C)(C)C |  | LYSA |  |  | solubility | 174 ± 47 µg/mL |
| Cc1[nH]c(/C=C2\N=C(c3ccc[nH]3)C=C2OC(C)C)cc1Cc1ccc(OC(F)(F)F)cc1.Cl |  |  | potassium phosphate buffer | 1.5 h, pH 7.4, room temperature, 100 mM buffer | solubility | 12.2 µM |
| CNCCCN1c2ccccc2CCc2ccccc21 | Plasmodium falciparum |  | D10 |  | IC50 | 10 µM |
| CC(C)(C)C(=O)NNCc1ccccc1 |  |  | PBS | 2 h, pH 7.4, 25 °C | solubility | ≥ 400 µM |
| COC1=CC(c2ccc[nH]2)=N/C1=C\c1[nH]c(C)cc1Cc1ccccc1.Cl |  |  | potassium phosphate buffer | 1.5 h, pH 7.4, room temperature, 100 mM buffer | solubility | 196 µM |
| Cc1ccc([C@H]2N[C@@H](CC(C)(C)C)CO[C@@H]2C)cn1 |  | shake-flask, LC-HRMS | aqueous buffer | 16 h, pH 6.8 | solubility | > 750 µM |
| NC(=O)c1cccc2c1O/C(=C\c1ccc(C(=O)NCCc3nc4ccccc4[nH]3)s1)C2=O |  | saturation solubility | aqueous buffer | 24 h, pH 7.2, 25 °C | solubility | > 60 µg/mL |
| COC1=CC(c2ccc[nH]2)=N/C1=C\c1[nH]c(C)cc1-c1ccccc1.Cl |  |  | potassium phosphate buffer | 1.5 h, pH 7.4, room temperature, 100 mM buffer | solubility | 90.1 µM |

Excerpt of the above:
| SMILES | target or system | test | test system | conditions | endpoint | result |
| --- | --- | --- | --- | --- | --- | --- |
| CC=CCC(C)C1OC(=O)C(C(C)C)N(C)C(=O)C(CC(C)C)N(C)C(=O)C(CC(C)C)N(C)C(=O)C(C)NC(=O)C(C)NC(=O)C(CC(C)C)N(C)C(=O)C(C(C)C)NC(=O)C(CC(C)C)N(C)C(=O)CN(C)C(=O)C(CC)NC(=O)C1NC (centres unmarked) |  |  | HBSS | 18 h, pH 7.4 | solubility | 91.2 µM |
